Assay results from different studies.
Parts stem from different laboratories: compare values within a part only.

Series 1
Target: Sal-like protein 4, full length isoform A (SALL4, Homo sapiens, UniProt Q9UJQ4, residues 1-1053)
Chain of UniProt Q9UJQ4 (whole entry, looked up): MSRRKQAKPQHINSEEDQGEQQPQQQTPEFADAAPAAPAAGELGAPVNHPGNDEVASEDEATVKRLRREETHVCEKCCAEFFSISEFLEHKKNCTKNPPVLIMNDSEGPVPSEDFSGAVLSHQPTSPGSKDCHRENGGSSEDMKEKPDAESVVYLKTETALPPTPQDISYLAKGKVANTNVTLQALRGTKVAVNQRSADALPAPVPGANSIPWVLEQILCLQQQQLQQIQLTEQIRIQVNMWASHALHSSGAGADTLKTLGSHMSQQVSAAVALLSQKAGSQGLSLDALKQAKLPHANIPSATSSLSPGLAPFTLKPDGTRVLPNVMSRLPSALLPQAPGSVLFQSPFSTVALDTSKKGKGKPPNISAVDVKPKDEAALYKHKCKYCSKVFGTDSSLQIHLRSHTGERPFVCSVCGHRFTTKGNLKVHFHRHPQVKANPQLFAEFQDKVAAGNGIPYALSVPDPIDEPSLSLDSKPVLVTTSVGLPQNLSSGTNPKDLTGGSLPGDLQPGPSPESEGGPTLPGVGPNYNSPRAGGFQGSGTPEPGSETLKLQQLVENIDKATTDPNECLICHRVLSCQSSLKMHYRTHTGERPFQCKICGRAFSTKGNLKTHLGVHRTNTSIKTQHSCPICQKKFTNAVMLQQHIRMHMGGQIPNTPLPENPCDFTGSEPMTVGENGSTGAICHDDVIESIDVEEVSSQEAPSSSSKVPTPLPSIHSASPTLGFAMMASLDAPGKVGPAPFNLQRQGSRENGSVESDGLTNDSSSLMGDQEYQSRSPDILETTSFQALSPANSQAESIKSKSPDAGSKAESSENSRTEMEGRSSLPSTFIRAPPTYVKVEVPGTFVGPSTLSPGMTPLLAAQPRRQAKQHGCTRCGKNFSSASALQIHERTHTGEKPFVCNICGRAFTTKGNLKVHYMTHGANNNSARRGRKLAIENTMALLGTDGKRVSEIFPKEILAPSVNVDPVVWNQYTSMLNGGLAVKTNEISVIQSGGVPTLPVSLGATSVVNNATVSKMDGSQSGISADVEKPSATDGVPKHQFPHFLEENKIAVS
Technique: universal PBM
Form: double-stranded DNA, one strand shown
Matrix: in vitro
Tested at: 600 nM
Setting: 8-mer, flanks averaged, mean of replicates
Reading: higher = stronger binding
Measurement: E-score
TATTACCA: 0.364
CAGCGTGC: -0.278
AGGGAAGC: -0.0276
ATTTAAGC: 0.269
ACCGCACT: -0.178
AAGCTTCA: -0.0817
TCCCCGCA: -0.254
TGCCAACA: 0.00864
CGGACAGC: -0.147
GTCGTGGA: -0.118
AGGAACTC: -0.0395
GTCACTGA: -0.0106
CGGGGGTA: -0.139
GTACGTAC: -0.0634
AGGCACAC: -0.0926
AATTGATC: 0.102
ATGCTCCA: -0.154
CCTGTTTA: 0.108
GTCAGAGA: -0.0274
AACTTAAA: 0.224

Series 2
Target: RNA binding protein fox-1 homolog 2, RRM domain, GST-SBP tag (RBFOX2, Homo sapiens, UniProt O43251-10, residues 100-194)
Technique: RNA Bind-n-Seq
Form: RNA
Matrix: in vitro
Tested at: 365 nM
Setting: natural RNA segment, single round, ends assumed
Baseline: no-protein control
Reading: higher = stronger binding
Measurement: RBNS enrichment (R)
All sequences stand within: GGGAGUUCUACAGUCCGACGAUC … UGGAAUUCUCGGGUGCCAA
Residues (chain): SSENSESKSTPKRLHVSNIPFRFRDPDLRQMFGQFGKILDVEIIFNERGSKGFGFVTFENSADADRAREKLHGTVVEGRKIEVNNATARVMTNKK
CUGUCCUUUUGUCUACACAUGCGUGCUGACCUUACCUGUGAGUCCACUGCCUUCGUGAAGGAUGCUCCGAGCCAUGAAACAUGUUCCUAGAUGUCGUUAAUCCCACCCAC: 0.915
CAGGAAGACCUGGCCCAGGCUGCUGUGGGCAGAGGCCCUCAUCAAGCCAAGUGGAAUGGAGCCGGCCAAGCUGAGCCUGACUUUUUUCAAUAAAACAUUGUGUACUUCUG: 0.352
GCCUUGCAGACCCUGGUUCCCGCCCUGUGGAUCUCUCAGCACUACUGAUGUGUCCUGGGUUGGCAGGUGCCUGGCAGUCCAGACAUCACAGACCCCAGAACAAGGUGAAA: 0.97
UACUCCACCUAAUCGUUAUAUCUGGAUAUACCCAUUUUCUGCAUCUUCUUUCUCAACAAUAAAAAAUGUAACUAUUUUGAAUGCCCACAAAUCCCAUUCCAGUGUUACUU: 3.53
GAUCAUACCUAAGAGGUUAGGAAAUGGUGCCAUUCCCACCUUAGAGUGCUACAUAGGUGCUUUGGGCGUAUGUAACAUUAGUGUCCUUCCUUGAAGCCACAAGCUAGUUU: 0.325
CAGCCCAGGCUCAGUUCUUGGGACCCACAUGGUAGAAGGAGUGUACCGACAUUCCCCCAAGUUGUCCUCUAACCUCCACAUGUGUGCUGUGGUAUGUGUGUUCUCACGUG: 5.21
CAAAAUAGAGCUUCCCAUGGUGUGCCCUAUCCUAGGUUUAAGAAAACACGUAUGAAGUUUAUGCUGAUGCAAAGAACUUGGGUUUUUAUGUUAAUAUAAAGUGUUGUUUU: 0.552
ACUUGCCUUGAAGAAGAAAGGCGCUGACACGCUUAACGCAAACAGAAGGUCCACAAAUAGCAGUUCACAUCACAGCCCUGCAGUCCCCUUUUGUAGCUGUGUUUAAGGUC: 0.347

Series 3
Target: PABPC1L2, full length, GST fusion (mouse, UniProt A0ABA7IW68)
Technique: RNAcompete
Form: RNA
Matrix: in vitro
Tested at: 20 nM
Setting: 7-mer, probes averaged, single round
Baseline: mean of 7-mers
Reading: higher = stronger binding
Measurement: 7-mer Z-score
Target sequence (chain): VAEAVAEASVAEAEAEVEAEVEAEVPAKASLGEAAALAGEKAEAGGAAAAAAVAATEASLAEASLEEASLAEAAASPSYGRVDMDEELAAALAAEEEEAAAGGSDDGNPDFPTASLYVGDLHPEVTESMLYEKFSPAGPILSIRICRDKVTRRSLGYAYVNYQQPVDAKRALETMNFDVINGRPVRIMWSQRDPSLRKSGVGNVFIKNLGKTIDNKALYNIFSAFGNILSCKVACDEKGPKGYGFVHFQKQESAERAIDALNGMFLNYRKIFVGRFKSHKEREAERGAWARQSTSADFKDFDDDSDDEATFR
GCCUCGG: -0.327
GAUCUCU: -0.338
AUCAUGU: -0.284
AGUUGAG: -0.199
GCGGGUU: -0.0409
GAUCACG: -0.108
ACAGGAU: 0.164
GAUAUGC: -0.177
GUACUAC: -0.0899
GGGAGGA: 0.39
CAUCUAC: -0.208
GAUCUGC: -0.271
ACAGACC: 0.0315
GAUACGC: -0.28
GAAAAAU: 12.1
GUAGUGU: -0.233
GGCACUG: 0.0732
ACCCAGU: -0.242
GCGGCGC: -0.142
CAUGAGC: -0.133
ACCCUCC: -0.278
UUAUUCU: -0.393
CGAGACG: 0.0261
UUAGCGG: 0.106
CUAGAUA: -0.0754

Series 4
Target: Ras GTPase-activating protein-binding protein 1, full length (G3BP1, Homo sapiens, UniProt Q13283)
Chain of UniProt Q13283 (whole entry, looked up): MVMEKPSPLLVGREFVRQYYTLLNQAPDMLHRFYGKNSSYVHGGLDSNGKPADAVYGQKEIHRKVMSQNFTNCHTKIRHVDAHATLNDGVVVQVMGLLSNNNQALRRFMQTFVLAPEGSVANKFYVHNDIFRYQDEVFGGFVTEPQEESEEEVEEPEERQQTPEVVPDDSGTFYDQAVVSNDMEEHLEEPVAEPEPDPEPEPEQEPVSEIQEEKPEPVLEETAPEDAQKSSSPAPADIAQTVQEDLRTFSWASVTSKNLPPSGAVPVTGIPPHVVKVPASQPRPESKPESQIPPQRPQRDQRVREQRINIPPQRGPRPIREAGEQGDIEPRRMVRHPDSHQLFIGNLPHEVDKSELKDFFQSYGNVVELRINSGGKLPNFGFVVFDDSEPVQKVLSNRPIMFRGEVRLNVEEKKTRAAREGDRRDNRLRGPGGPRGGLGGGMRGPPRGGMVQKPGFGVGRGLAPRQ
Technique: RNA Bind-n-Seq
Form: RNA
Matrix: in vitro
Tested at: 200 nM
Setting: whole 134-nt RNA, ends assumed
Together with: 150 mM KCl
Baseline: input library
Reading: higher = stronger binding
Measurement: log2 enrichment
All sequences stand within: GGGAGUUCUACAGUCCGACGAUC … UGGAAUUCUCGGGUGUCAAGG
UGGAUCUUGGAGGGACCAACUUCCGUGUGCUUUGGGUGAAAGUAACGGACAAUGGGCUCCAGAAGGUGGAGAUGGAGAAUCAGAUCUAUG: -1.41
CAAGUCCUGUGCUACACAUCGUAUGUACCGAAUCAAAUUUAAAUUUAAAUUUAAAAAAGUAUUAUGUUACGCCGUUCGGAUCUGCACUUC: -1.29
CUGUGCUACACAUCGUAUGUACCGAAUCGGGGAAAAAAGGGGAAAAAAGGGAAAAAAGGGGAAAGUAUUAUGUUACGCCGUUCGGAUCUG: -0.204
CCUGUGCUACACAUCGUAUGUACCGAAUCGGGGAGGGGAAAAAAAGGGGUUUUUUUGGGGAAAGUAUUAUGUUACGCCGUUCGGAUCUGC: 0.202
GUCAAGAAAGAUCUUAAGACUGGUCAUUCAAAGGGGUUUGGCUUUGUUCGUUUUACGGAAUAUGAAACACAAGUGAAAGUAAUGUCACAG: -0.838
AGUCCUGUGCUACACAUCGUAUGUACCGAAUCAAAUUUUUAAAUUUAAAUUUUUAAAAAAGUAUUAUGUUACGCCGUUCGGAUCUGCACU: -1.78
UCCUGUGCUACACAUCGUAUGUACCGAAUCGGGGAAAAAGGGGAAAAAAAGGGGAGGGGAAAGUAUUAUGUUACGCCGUUCGGAUCUGCA: 0.714
AGUCCUGUGCUACACAUCGUAUGUACCGAAUCGGGUUUUUGGUUUUUGGUUUUUGGGAAAGUAUUAUGUUACGCCGUUCGGAUCUGCACU: -1.36
AGUCCUGUGCUACACAUCGUAUGUACCGAAUCGGGGUUUGGGGUUUUUGGGGAGGGGAAAGUAUUAUGUUACGCCGUUCGGAUCUGCACU: 0.525

Series 5
Target: Histone acetyltransferase KAT6A, winged helix 2, GST fusion (KAT6A, Homo sapiens, UniProt Q92794, residues 85-181)
Technique: protein binding microarray
Form: double-stranded DNA, one strand shown
Matrix: in vitro
Tested at: not given
Setting: 8-mer, flanks averaged, mean of 2 arrays, mostly near background
Baseline: not given
Reading: higher = stronger binding
Measurement: E-score
Residues (chain): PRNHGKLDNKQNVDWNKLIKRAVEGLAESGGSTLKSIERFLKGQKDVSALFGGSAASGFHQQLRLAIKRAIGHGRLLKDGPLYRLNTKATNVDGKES
AATACGCT: -0.157
ACAGCAGT: 0.119
ACGTCACT: -0.0898
ACTCCCGC: 0.0537
CTTCGCAC: -0.0375
CCCGGCGG: 0.306
GCGTCAGA: -0.0947
TACCAGAA: 0.0819
TAATGGGA: -0.2
AAGGAGCA: 0.0244
CCTTTACC: -0.201
CAGCGAGA: -0.0415
GCAGACAA: -0.0459
AAGGGAGT: -0.124
ACCTGTAT: -0.11
CGCTCAAC: 0.0885
CCCACAAC: 0.141
CACCGGTG: -0.154
AAGCACTA: -0.0347
GAGTCAGA: -0.0147
ACGGTGTA: -0.142

Some of these lines once more (series 5):
CTTCGCAC: -0.0375
CCCGGCGG: 0.306
GCGTCAGA: -0.0947
TACCAGAA: 0.0819
TAATGGGA: -0.2
AAGGAGCA: 0.0244
CCTTTACC: -0.201
CAGCGAGA: -0.0415
GCAGACAA: -0.0459
AAGGGAGT: -0.124
ACCTGTAT: -0.11
CGCTCAAC: 0.0885
CCCACAAC: 0.141
